Results collected from several papers.
Cell line: A549

SMILES | effect on | method | time | notes | added | IC50
CC(C=NN=C(N)[S-])=NN=C(N)[S-].N.N.O=[N+]([O-])[O-].[Co+3] | cell viability | MTT | 24 h hypoxic, 48 h normoxic | hypoxic treatment |  | ~21.8 µM
COc1cccc2c1C(=O)c1c(O)c3c(c(O)c1C2=O)C[C@@](O)(C(=O)CO)C[C@@H]3O[C@H]1C[C@H](N)[C@H](O)[C@H](C)O1 | cell growth or viability | MTT |  |  |  | 5.86 µM
O=[N+]([O-])c1ccc2nc(/C=C/c3ccc(F)cc3)c(/C=C/c3ccc(F)cc3)nc2c1 | cell growth or viability | MTT | 72 h |  |  | > 100 µM
CC(=NN=c1sc(-c2cccs2)nn1-c1ccc([N+](=O)[O-])cc1)c1ccccc1 | cell growth or viability |  |  |  |  | 32.1 µM
Cc1cc(C)c(C2C3CCCN3C3(C(=O)Nc4ccccc43)C2C(=O)c2ccc(Br)cc2)c(C)c1 (centres unmarked) | cell growth or viability | MTT | 24 h |  |  | 55.6 µM
NCCN.O=C1[O][Pt]2([O]C(=O)C13CCC3)[O]C(=O)C1(CCC1)C(=O)[O]2 | cell viability | MTT | 96 h |  |  | > 640 µM
CC(=O)Nc1ccc(/C=C/c2nc3ccc([N+](=O)[O-])cc3nc2/C=C/c2ccc(NC(C)=O)cc2)cc1 | cell growth or viability | MTT | 72 h |  |  | > 100 µM
Cc1cc(C)c(C2CN(C)C3(C(=O)Nc4ccccc43)C2C(=O)c2ccc(F)cc2)c(C)c1 (centres unmarked) | cell growth or viability | MTT | 24 h |  |  | 9.02 µM
CCC(O)CC(=O)O[C@@H]1C[C@@H]2[C@@]3(C)CCC[C@](C)(CC)[C@@H]3CC[C@@]2(C)[C@@H]2C[C@@H](O)C3=C(C(=O)O[C@@H]3C)[C@@]12C (some centres unmarked) | cell growth or viability | CCK-8 | 24 h |  |  | ≤ 25 µM
C=CCc1ccc(O)c(-c2ccc(O)c(CC=C)c2)c1 | cell proliferation | MTS | 72 h |  | temozolomide 250 µM | 79.4 µM
C/C(=N/NC(=O)c1cn(-c2ccccc2)nc1-c1ccccc1)c1c(O)cc(C)oc1=O | cell growth or viability | MTT | 48 h |  |  | 146 µM
CC(=NN=C(N)[S-])C(C)=NN=C(N)[S-].N.N.O=[N+]([O-])[O-].[Co+3] | cell viability | MTT | 24 h then 48 h recovery | normoxia |  | > 500 µM
Cc1ccc(C(=O)C2C(c3c(C)cc(C)cc3C)C3CCCN3C23C(=O)Nc2ccccc23)cc1 (centres unmarked) | cell growth or viability | MTT |  |  |  | < 10 µM
O=[N+]([O-])c1ccc2nc(/C=C/c3cccc(Cl)c3)c(/C=C/c3cccc(Cl)c3)nc2c1 | cell growth or viability | MTT | 72 h |  |  | 75 µM
C=CC1=C(C)c2cc3[nH]c(cc4nc(cc5[nH]c(cc1n2)c(C)c5CCC(=O)O)C(CCC(=O)O)=C4C)c(C)c3C=C | cytotoxicity | resazurin | 4 h incubation | dark |  | > 100 µM
Clc1ccc(/C=C/c2nc3ccc(Br)cc3nc2/C=C/c2ccc(Cl)cc2)cc1 | cell growth or viability | MTT | 72 h |  |  | > 100 µM
CCN(CC)CC1CCN(c2ncc3ncnc(Nc4ccc(F)c(Cl)c4)c3n2)CC1 | cell growth or viability | resazurin | 5 days |  |  | 3.7 µM
Cc1cc(C)c(C2C3CCCN3C3(C(=O)Nc4ccccc43)C2C(=O)c2ccc(Cl)cc2)c(C)c1 (centres unmarked) | cell growth or viability | MTT | 24 h |  |  | 12.9 µM
CCn1[c](=[Au-2][Cl])n(CC)c2ccccc21 | cell growth or viability | crystal violet | 72 h |  |  | 10 µM
Cc1cc(C)c(C2C3CCCN3C3(C(=O)Nc4ccccc43)C2C(=O)c2ccc(F)cc2)c(C)c1 (centres unmarked) | cell growth or viability | MTT | 48 h |  |  | 17.4 µM
Nc1nc(-c2cccc(NC(=O)c3ccc4cccc(O)c4n3)c2)c(C(=O)c2ccccc2)[nH]1 | cell growth or viability | resazurin | 72 h |  |  | 28.8 µM
Cc1cccc(C(=O)C2C(c3c(C)cc(C)cc3C)C3CCCN3C23C(=O)Nc2ccccc23)c1 (centres unmarked) | cell growth or viability | MTT | 24 h |  |  | 11.1 µM
Nc1nc(-c2cccc(NC(=O)c3cc4cc(Cl)ccc4[nH]3)c2)c(C(=O)c2ccccc2)[nH]1 | cell viability | resazurin | 72 h |  |  | 15.1 µM

Repeated from above:
SMILES | effect on | method | time | notes | added | IC50
CC(C=NN=C(N)[S-])=NN=C(N)[S-].N.N.O=[N+]([O-])[O-].[Co+3] | cell viability | MTT | 24 h hypoxic, 48 h normoxic | hypoxic treatment |  | ~21.8 µM
COc1cccc2c1C(=O)c1c(O)c3c(c(O)c1C2=O)C[C@@](O)(C(=O)CO)C[C@@H]3O[C@H]1C[C@H](N)[C@H](O)[C@H](C)O1 | cell growth or viability | MTT |  |  |  | 5.86 µM
O=[N+]([O-])c1ccc2nc(/C=C/c3ccc(F)cc3)c(/C=C/c3ccc(F)cc3)nc2c1 | cell growth or viability | MTT | 72 h |  |  | > 100 µM
